Results of several laboratories.
Numbered parts are unrelated; each lists some results of a single study.

Block 1
Target: Sal-like protein 4, full length isoform B (SALL4, Homo sapiens, UniProt Q9UJQ4-2, residues 1-616)
Method: universal PBM
Form: double-stranded DNA, one strand shown
Matrix: in vitro
Concentration: not given
Setting: 8-mer, flanks averaged, mean of replicates
Direction: higher = stronger binding
Residues (chain): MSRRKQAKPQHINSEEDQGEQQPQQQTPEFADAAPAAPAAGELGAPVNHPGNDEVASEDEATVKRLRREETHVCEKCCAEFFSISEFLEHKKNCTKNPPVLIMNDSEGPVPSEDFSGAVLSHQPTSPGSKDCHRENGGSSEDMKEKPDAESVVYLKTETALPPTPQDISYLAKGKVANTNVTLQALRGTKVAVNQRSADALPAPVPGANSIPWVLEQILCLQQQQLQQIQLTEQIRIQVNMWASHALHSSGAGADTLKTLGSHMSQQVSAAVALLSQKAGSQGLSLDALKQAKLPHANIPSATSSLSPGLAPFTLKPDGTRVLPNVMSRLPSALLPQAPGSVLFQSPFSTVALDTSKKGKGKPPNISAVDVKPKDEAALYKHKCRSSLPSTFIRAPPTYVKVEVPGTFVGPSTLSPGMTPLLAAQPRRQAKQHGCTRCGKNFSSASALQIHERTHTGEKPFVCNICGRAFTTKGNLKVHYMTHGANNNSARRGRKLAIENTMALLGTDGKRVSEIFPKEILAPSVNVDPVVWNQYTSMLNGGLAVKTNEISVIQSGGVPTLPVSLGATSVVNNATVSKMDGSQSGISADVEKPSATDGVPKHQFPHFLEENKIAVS
The E-score of `AATCCACG` is reported as 0.0266.
For `GAATAATC`, the E-score was 0.224.
The E-score of `ATTGTGTC` is reported as 0.223.

Block 2
Target: Interferon regulatory factor 7, full length, phosphomimetic (IRF7, Homo sapiens, UniProt Q92985, residues 1-503, S471D/S472D/S475D/S476D/S477D/S483D/S484D/S487D)
Sequence of UniProt Q92985 (whole entry, unmodified, looked up): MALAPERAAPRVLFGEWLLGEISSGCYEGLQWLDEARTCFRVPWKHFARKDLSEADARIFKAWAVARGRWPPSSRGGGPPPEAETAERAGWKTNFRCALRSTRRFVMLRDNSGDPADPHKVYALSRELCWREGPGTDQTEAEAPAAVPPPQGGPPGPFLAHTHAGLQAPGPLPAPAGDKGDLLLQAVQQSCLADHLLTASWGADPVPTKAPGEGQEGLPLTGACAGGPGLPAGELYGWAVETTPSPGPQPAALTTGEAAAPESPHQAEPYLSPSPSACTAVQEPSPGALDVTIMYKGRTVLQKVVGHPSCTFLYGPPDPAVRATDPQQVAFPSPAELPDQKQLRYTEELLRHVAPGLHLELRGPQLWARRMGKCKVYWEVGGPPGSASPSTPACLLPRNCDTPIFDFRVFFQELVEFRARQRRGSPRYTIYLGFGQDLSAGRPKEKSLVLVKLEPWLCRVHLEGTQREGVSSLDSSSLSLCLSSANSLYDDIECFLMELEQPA
Method: protein-binding microarray
Form: double-stranded DNA, one strand shown
Matrix: in vitro
Concentration: 2200 nM top
Setting: 60-bp whole probe
Added: salmon DNA 0.4 mg/ml
Baseline: random background probes
Direction: higher = stronger binding
Shared flanks, not repeated: GCCTAGCAC … GTCTTGATTCGCTTGACGCTGCTG
Under “fitted relative affinity”, `GACGGTCTCGGACTGGGGAGGTGCTAG` is recorded as -0.486 z-score.
`TCAGTCTTCAGGTTCTCACTGTGCTAG` — result for “fitted relative affinity”: 1.35 z-score.
`TTAGGTATCGGTATCTGTTAGTGCTAG` — result for “fitted relative affinity”: 1.15 z-score.
`TTAGGACTGGGGTTTTGGTTAGTGCTA` — result for “fitted relative affinity”: -0.0406 z-score.
`GACGATTTCAGTCTAGAGACGTGCTAG` — result for “fitted relative affinity”: 0.625 z-score.

Block 3
Target: Centromere-binding protein 1, full length, His-tagged (CBF1, Saccharomyces cerevisiae, UniProt P17106, residues 1-351)
Sequence of UniProt P17106 (whole entry, looked up): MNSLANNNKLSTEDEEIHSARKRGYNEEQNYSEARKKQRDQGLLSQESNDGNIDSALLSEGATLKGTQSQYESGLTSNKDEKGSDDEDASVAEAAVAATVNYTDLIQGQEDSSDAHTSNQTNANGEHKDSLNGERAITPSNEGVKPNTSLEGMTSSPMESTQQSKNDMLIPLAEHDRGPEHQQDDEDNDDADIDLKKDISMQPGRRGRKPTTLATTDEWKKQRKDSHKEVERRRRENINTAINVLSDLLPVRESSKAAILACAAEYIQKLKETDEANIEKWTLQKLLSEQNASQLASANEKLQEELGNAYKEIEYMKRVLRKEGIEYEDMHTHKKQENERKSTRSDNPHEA
Method: competition protein-binding microarray
Form: double-stranded DNA, one strand shown
Matrix: in vitro
Concentration: 2 µM
Setting: whole 60-bp probe, lowest competitor level
Added: Pho4 competitor, 0.05 µM
Direction: higher = stronger binding
With `TCGCGAAGGCTAAGCCATGTGCTGTTACCCCTGCTGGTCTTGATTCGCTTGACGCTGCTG` the fluorescence intensity was 72.4 a.u.
For `CGGGGTTAAGTTTTTCACGTGAACTGCTTGCAGCAGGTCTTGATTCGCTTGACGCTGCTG`, the fluorescence intensity was 806 a.u.
`TCCCGCTATTTCGACCACGTGGAATCATTTTCGGGTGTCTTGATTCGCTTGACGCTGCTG` has a fluorescence intensity of 1830 a.u.
With `CAGTGAGATTACGCAGCCGTGCGATTCAGGGACAGAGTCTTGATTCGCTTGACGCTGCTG` the fluorescence intensity was 55.1 a.u.
`TTGCTCGAACATTGTCATGTGATGCTAAACATTGTAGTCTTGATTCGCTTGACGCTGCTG` gave a fluorescence intensity of 1170 a.u.
With `AAGAAGGCATTCCTCCACGTGACGGAAGACTTTGGAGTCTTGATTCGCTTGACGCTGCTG` the fluorescence intensity was 2240 a.u.
The fluorescence intensity of `AACCAATACCACCGTCACGTGTTTTCAAGAAAGAAGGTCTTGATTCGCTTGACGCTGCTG` is reported as 5550 a.u.

Single results of other studies
For `PhoQ, residues 284 288 289 292 302 303 TLMATV`, the fold induction was 2.85 (PhoP, residues 12 14 15 18 19 VQALL (Escherichia coli, UniProt P23836); Sort-seq, item: YFP reporter; E. coli; PhoQ-PhoP variant library, added: 10 µM Mg2+; baseline: high Mg2+ state, higher = stronger signaling).

Excerpt of the above (block 2):
`TCAGTCTTCAGGTTCTCACTGTGCTAG` — result for “fitted relative affinity”: 1.35 z-score.
